Measurements pooled from the literature.
A part holds a random share of what one study measured.
UniProt P49760, sequence (whole entry, looked up): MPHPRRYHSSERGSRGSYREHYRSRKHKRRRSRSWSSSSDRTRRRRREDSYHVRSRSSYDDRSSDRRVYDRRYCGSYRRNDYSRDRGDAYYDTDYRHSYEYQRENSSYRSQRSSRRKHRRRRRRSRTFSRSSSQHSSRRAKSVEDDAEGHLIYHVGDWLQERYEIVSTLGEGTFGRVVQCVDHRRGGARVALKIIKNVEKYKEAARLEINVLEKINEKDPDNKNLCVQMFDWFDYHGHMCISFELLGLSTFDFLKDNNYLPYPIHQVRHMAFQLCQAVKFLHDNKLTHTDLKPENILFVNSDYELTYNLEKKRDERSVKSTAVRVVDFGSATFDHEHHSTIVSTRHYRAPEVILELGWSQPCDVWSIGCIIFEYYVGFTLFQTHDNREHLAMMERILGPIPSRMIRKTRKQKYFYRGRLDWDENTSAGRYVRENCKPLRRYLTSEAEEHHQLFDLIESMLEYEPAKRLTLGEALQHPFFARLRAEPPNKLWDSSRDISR
UniProt Q9BWU1, sequence (whole entry, looked up): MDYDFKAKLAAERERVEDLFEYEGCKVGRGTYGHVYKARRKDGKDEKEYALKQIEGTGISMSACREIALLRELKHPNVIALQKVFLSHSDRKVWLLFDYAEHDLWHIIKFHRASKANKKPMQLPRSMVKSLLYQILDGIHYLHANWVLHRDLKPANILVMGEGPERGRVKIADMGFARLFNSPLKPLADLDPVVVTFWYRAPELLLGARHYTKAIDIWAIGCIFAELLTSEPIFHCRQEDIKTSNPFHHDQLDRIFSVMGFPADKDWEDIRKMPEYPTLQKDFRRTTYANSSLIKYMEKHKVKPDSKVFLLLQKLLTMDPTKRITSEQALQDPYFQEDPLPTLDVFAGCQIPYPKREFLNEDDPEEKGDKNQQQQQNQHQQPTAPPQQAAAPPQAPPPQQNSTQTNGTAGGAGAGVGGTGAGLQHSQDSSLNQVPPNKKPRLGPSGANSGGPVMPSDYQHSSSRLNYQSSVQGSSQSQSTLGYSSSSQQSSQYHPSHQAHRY
UniProt O75582, sequence (whole entry, looked up): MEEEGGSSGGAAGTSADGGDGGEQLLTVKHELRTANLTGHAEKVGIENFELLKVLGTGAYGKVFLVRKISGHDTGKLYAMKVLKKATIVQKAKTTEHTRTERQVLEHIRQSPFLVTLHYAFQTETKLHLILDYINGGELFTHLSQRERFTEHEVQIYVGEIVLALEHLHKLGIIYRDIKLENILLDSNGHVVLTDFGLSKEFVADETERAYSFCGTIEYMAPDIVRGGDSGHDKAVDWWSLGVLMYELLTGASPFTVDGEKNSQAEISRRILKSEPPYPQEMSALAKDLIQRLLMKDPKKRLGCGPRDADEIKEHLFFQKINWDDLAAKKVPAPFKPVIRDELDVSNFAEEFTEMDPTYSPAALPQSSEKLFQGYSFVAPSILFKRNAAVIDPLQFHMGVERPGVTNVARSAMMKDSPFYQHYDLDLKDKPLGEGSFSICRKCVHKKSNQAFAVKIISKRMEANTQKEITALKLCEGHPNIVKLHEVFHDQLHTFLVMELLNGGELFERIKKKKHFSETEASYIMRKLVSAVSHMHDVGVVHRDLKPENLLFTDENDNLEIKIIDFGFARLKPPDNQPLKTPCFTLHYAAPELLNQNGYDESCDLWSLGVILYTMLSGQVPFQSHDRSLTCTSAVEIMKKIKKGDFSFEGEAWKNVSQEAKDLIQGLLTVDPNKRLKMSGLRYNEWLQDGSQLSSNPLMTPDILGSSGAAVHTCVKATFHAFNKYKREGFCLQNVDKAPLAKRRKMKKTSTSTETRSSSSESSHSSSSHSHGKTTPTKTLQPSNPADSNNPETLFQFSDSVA
UniProt P07332, sequence (whole entry, looked up): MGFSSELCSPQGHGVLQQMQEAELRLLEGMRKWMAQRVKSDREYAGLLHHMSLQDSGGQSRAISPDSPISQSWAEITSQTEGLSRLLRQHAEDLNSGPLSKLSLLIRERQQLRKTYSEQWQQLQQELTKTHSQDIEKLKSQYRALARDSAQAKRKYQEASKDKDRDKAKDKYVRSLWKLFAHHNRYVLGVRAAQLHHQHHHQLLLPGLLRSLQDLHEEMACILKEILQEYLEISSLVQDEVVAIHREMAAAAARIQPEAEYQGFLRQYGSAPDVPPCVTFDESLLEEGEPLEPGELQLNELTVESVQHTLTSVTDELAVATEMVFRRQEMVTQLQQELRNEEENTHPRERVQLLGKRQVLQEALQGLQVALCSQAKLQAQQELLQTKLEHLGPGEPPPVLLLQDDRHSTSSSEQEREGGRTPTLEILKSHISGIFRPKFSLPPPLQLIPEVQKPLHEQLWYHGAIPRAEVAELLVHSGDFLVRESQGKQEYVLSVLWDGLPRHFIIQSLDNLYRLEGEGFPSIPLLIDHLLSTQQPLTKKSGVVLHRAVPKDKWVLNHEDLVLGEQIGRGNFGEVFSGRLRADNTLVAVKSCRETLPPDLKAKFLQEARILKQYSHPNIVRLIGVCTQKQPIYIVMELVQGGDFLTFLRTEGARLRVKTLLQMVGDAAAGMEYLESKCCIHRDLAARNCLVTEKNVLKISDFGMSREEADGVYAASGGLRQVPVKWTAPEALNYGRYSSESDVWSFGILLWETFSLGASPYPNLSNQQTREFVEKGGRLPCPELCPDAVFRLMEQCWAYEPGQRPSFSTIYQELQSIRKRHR
UniProt Q9P286, sequence (whole entry, looked up): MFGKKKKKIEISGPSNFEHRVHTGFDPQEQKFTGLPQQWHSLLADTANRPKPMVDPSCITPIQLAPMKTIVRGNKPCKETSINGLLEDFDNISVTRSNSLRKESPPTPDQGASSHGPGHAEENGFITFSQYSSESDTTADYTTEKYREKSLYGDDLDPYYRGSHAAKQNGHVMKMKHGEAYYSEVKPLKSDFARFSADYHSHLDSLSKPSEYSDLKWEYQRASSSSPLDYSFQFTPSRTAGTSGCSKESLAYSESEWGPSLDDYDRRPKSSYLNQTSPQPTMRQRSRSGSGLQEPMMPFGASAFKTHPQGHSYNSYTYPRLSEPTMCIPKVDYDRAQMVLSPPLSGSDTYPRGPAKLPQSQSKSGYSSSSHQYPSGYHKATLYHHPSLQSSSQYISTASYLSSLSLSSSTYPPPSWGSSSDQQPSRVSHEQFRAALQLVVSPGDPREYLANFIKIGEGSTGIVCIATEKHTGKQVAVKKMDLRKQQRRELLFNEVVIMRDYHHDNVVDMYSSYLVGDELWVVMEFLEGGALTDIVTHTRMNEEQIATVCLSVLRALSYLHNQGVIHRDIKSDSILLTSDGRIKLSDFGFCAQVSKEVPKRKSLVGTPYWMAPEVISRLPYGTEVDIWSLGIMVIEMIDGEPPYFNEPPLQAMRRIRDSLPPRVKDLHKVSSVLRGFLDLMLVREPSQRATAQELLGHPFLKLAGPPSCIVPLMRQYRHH
UniProt O00750, sequence (whole entry, looked up): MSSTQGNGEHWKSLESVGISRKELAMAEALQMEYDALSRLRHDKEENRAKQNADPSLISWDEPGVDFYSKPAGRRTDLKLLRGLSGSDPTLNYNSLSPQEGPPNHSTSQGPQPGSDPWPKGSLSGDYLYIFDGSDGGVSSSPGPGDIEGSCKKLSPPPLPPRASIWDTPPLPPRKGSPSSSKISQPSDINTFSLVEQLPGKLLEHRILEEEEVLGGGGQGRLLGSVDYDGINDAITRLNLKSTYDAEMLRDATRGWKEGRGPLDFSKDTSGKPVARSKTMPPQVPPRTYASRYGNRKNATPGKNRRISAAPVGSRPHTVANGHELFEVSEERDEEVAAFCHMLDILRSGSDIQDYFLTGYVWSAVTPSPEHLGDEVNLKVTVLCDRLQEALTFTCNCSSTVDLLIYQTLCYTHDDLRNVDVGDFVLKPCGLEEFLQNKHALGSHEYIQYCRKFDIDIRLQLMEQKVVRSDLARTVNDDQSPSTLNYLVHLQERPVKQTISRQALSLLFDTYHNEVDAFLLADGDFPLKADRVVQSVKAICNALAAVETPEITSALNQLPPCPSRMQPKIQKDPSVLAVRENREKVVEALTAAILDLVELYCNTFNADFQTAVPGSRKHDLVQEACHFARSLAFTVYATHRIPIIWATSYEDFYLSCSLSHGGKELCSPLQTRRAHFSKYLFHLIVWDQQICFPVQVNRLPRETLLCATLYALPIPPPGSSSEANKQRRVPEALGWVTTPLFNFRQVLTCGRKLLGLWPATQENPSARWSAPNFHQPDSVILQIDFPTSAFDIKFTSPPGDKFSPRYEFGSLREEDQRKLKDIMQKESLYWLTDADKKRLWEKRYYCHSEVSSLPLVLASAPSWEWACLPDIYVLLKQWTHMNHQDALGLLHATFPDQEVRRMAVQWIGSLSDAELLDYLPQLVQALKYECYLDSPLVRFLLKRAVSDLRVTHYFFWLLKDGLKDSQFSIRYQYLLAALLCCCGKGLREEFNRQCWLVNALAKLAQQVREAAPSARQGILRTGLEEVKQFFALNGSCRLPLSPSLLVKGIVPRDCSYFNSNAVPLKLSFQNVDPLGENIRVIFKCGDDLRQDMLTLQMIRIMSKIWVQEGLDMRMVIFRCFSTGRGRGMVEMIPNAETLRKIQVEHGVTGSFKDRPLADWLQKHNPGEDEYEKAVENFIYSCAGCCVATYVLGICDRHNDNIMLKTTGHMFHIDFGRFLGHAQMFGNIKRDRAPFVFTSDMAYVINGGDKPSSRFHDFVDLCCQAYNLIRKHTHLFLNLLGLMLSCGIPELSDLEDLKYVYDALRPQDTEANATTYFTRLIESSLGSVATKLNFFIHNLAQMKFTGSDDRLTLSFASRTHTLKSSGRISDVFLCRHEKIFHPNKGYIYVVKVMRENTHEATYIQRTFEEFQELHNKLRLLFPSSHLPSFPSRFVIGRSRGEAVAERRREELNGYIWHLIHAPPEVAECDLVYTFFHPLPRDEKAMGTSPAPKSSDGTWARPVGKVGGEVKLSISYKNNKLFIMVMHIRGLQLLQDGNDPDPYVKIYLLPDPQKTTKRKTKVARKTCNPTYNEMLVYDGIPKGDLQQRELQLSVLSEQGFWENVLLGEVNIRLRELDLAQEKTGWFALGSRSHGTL

Block 1
SMILES: COc1ccc(-c2cnc3c(-c4ccsc4)cnn3c2)cc1
Effect on: enzyme activity
Action: inhibitor
Tested at: 0.5 µM
Baseline: control
Protein kinase C zeta type (PRKCZ, Homo sapiens, UniProt Q05513) — remaining activity: 107%.
The remaining activity was 83.8% (Dual specificity protein kinase CLK2 (CLK2, Homo sapiens, UniProt P49760)).
Serine/threonine-protein kinase BRSK2 (BRSK2, Homo sapiens, UniProt Q8IWQ3) — remaining activity: 94.1%.
The remaining activity was 85.1% (Ephrin type-A receptor 6 (EPHA6, Homo sapiens, UniProt Q9UF33)).
For Ephrin type-A receptor 2 (EPHA2, Homo sapiens, UniProt P29317): remaining activity read 95.9%.
It gave 98.2% for remaining activity (Tyrosine-protein kinase Fes/Fps (FES, Homo sapiens, UniProt P07332)).
It gave 78.1% for remaining activity (Serine/threonine-protein kinase PAK 5 (PAK5, Homo sapiens, UniProt Q9P286)).
Ribosomal protein S6 kinase beta-2 (RPS6KB2, Homo sapiens, UniProt Q9UBS0) — remaining activity: 100%.
It gave 91.3% for remaining activity (Insulin-like growth factor 1 receptor (IGF1R, Homo sapiens, UniProt P08069)).
The remaining activity was 98.7% (Protein kinase C theta type (PRKCQ, Homo sapiens, UniProt Q04759)).
Serine/threonine-protein kinase pim-1 (PIM1, Homo sapiens, UniProt P11309) — remaining activity: 97.5%.
Cyclin-dependent kinase 2, with cyclin E (CDK2, Homo sapiens, UniProt P24941) — remaining activity: 82.8%.
The remaining activity was 99.4% (Ephrin type-B receptor 3 (EPHB3, Homo sapiens, UniProt P54753)).

Block 2
SMILES: CC(C)CC(=O)N1CCc2nc(-c3ccc(Br)cc3)nc(N(C)Cc3ccccc3)c2C1
Tested at: 0.1 µM
Mitogen-activated protein kinase kinase kinase 20 (MAP3K20, Homo sapiens, UniProt Q9NYL2); cell-free assay, competition with immobilised ligand — remaining binding: 100%.
For BMP-2-inducible protein kinase (BMP2K, Homo sapiens, UniProt Q9NSY1); cell-free assay, competition with immobilised ligand: remaining binding read 99%.
For Ribosomal protein S6 kinase alpha-5, N-terminal kinase domain (RPS6KA5, Homo sapiens, UniProt O75582); cell-free assay, competition with immobilised ligand: remaining binding read 96%.
The remaining binding was 62% (Cyclin-dependent kinase 19 (CDK19, Homo sapiens, UniProt Q9BWU1); competition binding).
For Megakaryocyte-associated tyrosine-protein kinase (MATK, Homo sapiens, UniProt P42679); cell-free assay, competition with immobilised ligand: remaining binding read 100%.
The remaining binding was 84% (SNF-related serine/threonine-protein kinase (SNRK, Homo sapiens, UniProt Q9NRH2); cell-free assay, competition with immobilised ligand).
Serine/threonine-protein kinase PAK 6 (PAK6, Homo sapiens, UniProt Q9NQU5); cell-free assay, competition with immobilised ligand — remaining binding: 100%.
It gave 100% for remaining binding (Non-receptor tyrosine-protein kinase TYK2, JH1 (TYK2, Homo sapiens, UniProt P29597); cell-free assay, competition with immobilised ligand).
Phosphatidylinositol 4-phosphate 3-kinase C2 domain-containing subunit beta (PIK3C2B, Homo sapiens, UniProt O00750); cell-free assay, competition with immobilised ligand — remaining binding: 100%.
Bone morphogenetic protein receptor type-2 (BMPR2, Homo sapiens, UniProt Q13873); cell-free assay, competition with immobilised ligand — remaining binding: 99%.

Block 3
Target: Prothrombin, mature alpha-thrombin (F2, Homo sapiens, UniProt P00734)
Technique: aptamer microarray, sandwich
Form: DNA with 2'F-ANA
Sample: in vitro
Tested at: 200 nM
Setting: whole 15-mer aptamer, many near background
Together with: Cy3 exosite-II aptamer, 400 nM
Direction: higher = stronger binding
Sequence: GGTTGGTGTGGTTGG
Under “mean fluorescence intensity”, `2'F-ANA at 2 3 5 8 9 10 14` is recorded as 85.7 a.u.
For `2'F-ANA at 1 3 4 8 10 13 14`, “mean fluorescence intensity” read 50.5 a.u.
`2'F-ANA at 1 2 4 5`: “mean fluorescence intensity” 104 a.u.
`2'F-ANA at 1 2 5 6 9 10 12 13 15` — result for “mean fluorescence intensity”: 46.5 a.u.
Under “mean fluorescence intensity”, `2'F-ANA at 5 8` is recorded as 105 a.u.
Under “mean fluorescence intensity”, `2'F-ANA at 2 5 6 9 12 13 14` is recorded as 67.7 a.u.
`2'F-ANA at 4 5 9 10 14`: “mean fluorescence intensity” 60 a.u.
Under “mean fluorescence intensity”, `2'F-ANA at 1 2 5 11 12 13 15` is recorded as 71.7 a.u.

Other studies, line by line
`CCOC(=O)[C@@H]1CSCC(=O)N[C@@H](CC)C(=O)N(C)[C@@H](C)C(=O)N[C@@H](CC(C)C)C(=O)N2CCC[C@@H]2C(=O)N(CC(C)C)CC(=O)N[C@H](CC(C)C)C(=O)N(C)[C@H](C)C(=O)N[C@@H](CC(C)C)C(=O)N1C` gave a logD of 0.816 (hydrocarbon/water).

A few entries again (block 1):
The remaining activity was 98.7% (Protein kinase C theta type (PRKCQ, Homo sapiens, UniProt Q04759)).
Serine/threonine-protein kinase pim-1 (PIM1, Homo sapiens, UniProt P11309) — remaining activity: 97.5%.
Cyclin-dependent kinase 2, with cyclin E (CDK2, Homo sapiens, UniProt P24941) — remaining activity: 82.8%.
The remaining activity was 99.4% (Ephrin type-B receptor 3 (EPHB3, Homo sapiens, UniProt P54753)).
